Assay results collected from several papers.
Numbered parts are unrelated; each lists some results of a single study.

Series 1
Target: Histone acetyltransferase KAT6A, winged helix 1, GST fusion (KAT6A, Homo sapiens, UniProt Q92794, residues 1-85)
Technique: protein binding microarray
Form: double-stranded DNA, one strand shown
Matrix: in vitro
Concentration: not given
Setting: 8-mer, flanks averaged, mean of 2 arrays, mostly near background
Relative to: not given
Direction: higher = stronger binding
Construct (chain): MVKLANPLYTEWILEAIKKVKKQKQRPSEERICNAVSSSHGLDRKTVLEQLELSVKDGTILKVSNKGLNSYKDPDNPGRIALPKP
Strand | E-score
AAGCTCGA | -0.16
AACTTACA | -0.272
GGGGTCTA | 0.0558
CCTCATCC | -0.0952
ACCTTTTA | -0.122
AACAACGG | 0.117
GCACTTAA | -0.137
CTTCACCA | -0.0677
GGTTCTGA | 0.0293
AGTTAGTC | 0.0673
AGACTACG | 0.0537
GGTGGAAC | -0.0321
ATTTATAA | -0.147
ATGCATGA | -0.204
AATAACGT | 0.0456
CTGGTCGA | -0.155
AAGGTTTA | -0.198
GAATGTAC | -0.00726
CCTAGCAC | -0.0812
CAAGAGTG | -0.206
AAACAAGC | -0.129
AGGACGAG | -0.234
ACTGTACC | 0.0333
ACTAGGCT | -0.108
AGCTTACC | -0.0213

Series 2
Target: RNA binding protein fox-1 homolog 2, RRM domain, GST-SBP tag (RBFOX2, Homo sapiens, UniProt O43251-10, residues 100-194)
Technique: RNA Bind-n-Seq
Form: RNA
Matrix: in vitro
Concentration: 365 nM
Setting: natural RNA segment, single round, ends assumed
Relative to: no-protein control
Direction: higher = stronger binding
Target sequence (chain): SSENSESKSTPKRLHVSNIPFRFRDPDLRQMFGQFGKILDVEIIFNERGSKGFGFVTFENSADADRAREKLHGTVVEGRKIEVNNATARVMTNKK
Strand | RBNS enrichment (R)
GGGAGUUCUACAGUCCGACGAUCGUGUAGUCAUUCAUUUCUAGCUGUACAUAGGAUGAAGGAGAGAUCAGAUACAUGAACAUGUCUUACAUGGGUUGCUGUAUUUAGAAUUAUAAACAUUUUUCAUUAUUGGAUGGAAUUCUCGGGUGCCAA | 0.391
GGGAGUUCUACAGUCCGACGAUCGUAGAAAGUCUCCCUGGAAGCUGACCCACAAAGCCCUGUGACCUGGCCCCUCCUCUGAAGGCCAGCAAGAGGUGGAGCAAGGAUCAACUGCUGUUCUGGAGUAGGGUUCCUGGAAUUCUCGGGUGCCAA | 0.277
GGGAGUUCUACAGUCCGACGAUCAUUAAUUAUGGUUAGCUAUUUUUCUCUCAUUGAUUUUUGUGCCACUUGAAUGGAACAGAAGCAAGCCUUAUGUUUUGGAAGGUCUGCGGUAAAAUGCUGUGACUGUUUACUGGAAUUCUCGGGUGCCAA | 0.673
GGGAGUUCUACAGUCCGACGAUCAAGCAGCUGGACUAUGCAAAAAGUAUUUCUCUGUCAGUUCCCCACUCUAUACCAAGGAUAUUAUUAAAACUAGAAAUGACUGCAUUGAGAGGGAGUUGUGGGAAAUAAGAUGGAAUUCUCGGGUGCCAA | 0.61
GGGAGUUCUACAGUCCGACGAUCCUCCCUCAUUUUCUCUCAUCAUGUAGGAAAGAGUGGGACCCCCUCCCAACCCCUUUCUGUUAAAGCCUCCUAAGUGGUCAUUACUACUUUGUAGACAUUGGUAUUUGUUUUGGAAUUCUCGGGUGCCAA | 0.681
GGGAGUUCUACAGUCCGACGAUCGAGCCUGCAUUUCCCUGCUAUUGUAGGGAUUCCUACUGGGAGACCUCGAGGGGUAGCUGUCUCCUGCAGAGACAAGAGCCGAAGCACUGGUCUCAUUGAAGACGACACGUUGGAAUUCUCGGGUGCCAA | 0.341
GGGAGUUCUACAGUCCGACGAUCCACAACUUGCACACCCCCUGUUCCCUCACUGUGUGCCCAACCUCUUCCUUUUUCCUGGGAUUCUUUAUCCUAAACCCUGCAUAUCUGAGAACCGCCUUUCUCAUAUUUCCUGGAAUUCUCGGGUGCCAA | 3.74
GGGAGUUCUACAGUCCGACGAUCGAGAAUCUAUUUGGGAAGUGGGUAGGGGGUGGGAGAACAGUGUUGUCACAUGCAUUCUGUGGUGGCCAGCACUACGAAAUGCUACCUUCAAUAAACUGAACCUGCCACUCUGGAAUUCUCGGGUGCCAA | 0.498

Series 3
Target: RING finger protein unkempt homolog, zinc fingers 1-6, SBP tag (UNK, Homo sapiens, UniProt Q9C0B0, residues 30-357)
UniProt Q9C0B0, sequence (30-357, looked up): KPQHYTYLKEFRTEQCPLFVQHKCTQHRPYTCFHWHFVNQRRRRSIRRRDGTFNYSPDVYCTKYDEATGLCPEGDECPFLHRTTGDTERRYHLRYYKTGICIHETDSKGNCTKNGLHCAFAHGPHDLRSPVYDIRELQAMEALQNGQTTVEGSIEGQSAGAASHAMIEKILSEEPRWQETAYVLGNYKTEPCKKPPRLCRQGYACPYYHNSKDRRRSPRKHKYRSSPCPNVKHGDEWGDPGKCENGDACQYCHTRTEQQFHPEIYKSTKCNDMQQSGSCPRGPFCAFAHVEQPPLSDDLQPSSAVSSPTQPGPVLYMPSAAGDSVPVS
Technique: RNA Bind-n-Seq
Form: RNA
Matrix: in vitro
Concentration: 100 nM
Setting: RNA with constant flanks, vertebrate orthologous sites, ends assumed
Relative to: input RNA pool
Direction: higher = stronger binding
Strand | bound/input enrichment
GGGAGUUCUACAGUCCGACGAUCCUGUUGUUAAGCACUGUGUUCCAGACCGUGUCUGACUUUAGUGUAACCUAGGAGAUUUUAUAGUUUUAUUUUAAUGAAACCCUGCUUGGCGCCGAACAGCGGGGAGAGCAGUGUCUUCUACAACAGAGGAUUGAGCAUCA | 0.917 ratio
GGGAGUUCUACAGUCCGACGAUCUGUGUGUUGGUGCAGAGUGCUCUGUACCAGUGCUCAUCAUCCCUUCAUACCAACUGUCUCUAGCUAUAGGAAUUUGAUAUUUUUAAAAGUUUUACAUUGCUGUAUAUUCAAAGAUUUGUUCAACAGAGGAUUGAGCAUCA | 0.542 ratio
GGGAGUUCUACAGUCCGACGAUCGAUUUGGACCCUGGAGCCGAACCAGGGAGCUAGCAAAAGUAAAGCAGACUUGUAAAAUUAUAGCCAUGUGCAGCUGUACAGCAACAGUAUUACCACUAGCAUCUGUGUUAAAGUAUUUAUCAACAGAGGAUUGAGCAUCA | 0.542 ratio
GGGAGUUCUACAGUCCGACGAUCGGGACGCUUUGAUGUAAAGAUUGAAGUUAAGAGCUGAUCACAAGCACAAAUCUUUCCCACUAGCCAUUUAAAGAGUUAAGAAAAAGAUACAAAAAACCUACUAGUCUUGAACAAACUGUCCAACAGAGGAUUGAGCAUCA | 1.05 ratio
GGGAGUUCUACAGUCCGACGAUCUUAAACUUCUUUUUUUUAAUUUAAUUUUUUCCUUUCAGGGGUAAAGUUUGCUUUACCAAAUAGUGAUUGUAACAGAUUGAUCUGUUUUGGAUGUUGCUAUAGUGACAUGCAGUUCUAUAUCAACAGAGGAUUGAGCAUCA | 1.76 ratio
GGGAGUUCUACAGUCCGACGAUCCAGUUUGUAUGUACAUUAUUCACAUUCCUCUCUGUUGUGUUUGGGGGAAAAAAAGACAUUUUAGCCUUUUUUAAGGUUAUUGAUUUAAUUUCAUGUUAUUUGGUUGCAUGAAGUUGCCCUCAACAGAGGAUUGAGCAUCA | 0.425 ratio
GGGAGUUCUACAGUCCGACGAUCGGUCCCCUGGGCUGGGACAGACAUUUUUUUAAGCGUCUUGAAACCUAAACUCUGUGCUUGUAGAAGACUGUAACCUUUUUGUUUGUUUUUUGUUUUUAAAACAACCUGCACCUCCAGUGGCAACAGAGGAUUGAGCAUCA | 0.407 ratio
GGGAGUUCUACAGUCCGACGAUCCCCCGUUUUUAAAUGCUCUUUUGAUGCUUCCAGCAGCACCAUUUGUACAGUUUUUCUCUAAAAACAAAAAUGUUGAUUCAAAUUUCUUGUAUUUAAGUUUAAAUUGUUACAACAUUUUAGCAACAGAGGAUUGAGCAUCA | 0.193 ratio

Series 4
Target: Phosphate system positive regulatory protein PHO4, full length, GST-tagged (PHO4, Saccharomyces cerevisiae, UniProt P07270, residues 1-312)
Technique: competition protein-binding microarray
Form: double-stranded DNA, one strand shown
Matrix: in vitro
Concentration: 2 µM
Setting: whole 60-bp probe, lowest competitor level
Added: Cbf1 competitor, 0.05 µM
Direction: higher = stronger binding
Residues (chain): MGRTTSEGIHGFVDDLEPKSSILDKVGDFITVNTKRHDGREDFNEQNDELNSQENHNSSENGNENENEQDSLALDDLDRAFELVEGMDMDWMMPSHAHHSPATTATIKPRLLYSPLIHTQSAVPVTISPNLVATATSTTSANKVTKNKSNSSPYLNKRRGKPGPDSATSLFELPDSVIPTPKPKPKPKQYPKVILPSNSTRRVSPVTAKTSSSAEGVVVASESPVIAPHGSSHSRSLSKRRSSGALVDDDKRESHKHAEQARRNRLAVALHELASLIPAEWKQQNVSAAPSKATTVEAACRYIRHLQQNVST
Strand | fluorescence intensity [a.u.]
CGCGGCTCTTGGCAGCACGAGGTGGTTTCACTGCAGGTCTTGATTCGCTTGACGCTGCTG | 13600
GGAGCAGGCTCAGAGAATGTGACGAAATTCGCTTTAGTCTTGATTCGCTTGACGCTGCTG | 4400
CTTCTGTAAATTTGCGTCGTGGGTGGACGCGCCCCGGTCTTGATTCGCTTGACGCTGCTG | 7430
CATAAGGACCCCCATATCGTGATGGTCATTGATGACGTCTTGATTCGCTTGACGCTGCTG | 5850
CGGGGTTAAGTTTTTCACGTGTAATGCTTGCAGCAGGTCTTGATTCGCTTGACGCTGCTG | 11400
AACACTCGAGTTACTTCCGTGATGGTTTAATGGTCAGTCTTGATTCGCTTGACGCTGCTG | 3720
GTCTTGTCTCATTGTCATGTGGGTGTCCCCACTTCAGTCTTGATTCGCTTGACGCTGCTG | 9240
ATTACCTTGGCCCTTCACGGGCGGGTTCCTCGGAATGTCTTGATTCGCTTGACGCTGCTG | 4400
CTAACGAAGGTTTGTCACGAAACTTACAAGCCAAGTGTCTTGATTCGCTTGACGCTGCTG | 3180
TGGATAAAATTTAAGCGCGTGAAATTGGAATCTAAAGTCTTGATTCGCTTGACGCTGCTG | 6100
GAAGGTTTGATCCATCACGTGCCAGATTTTATACCGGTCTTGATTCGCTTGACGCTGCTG | 17000
TGCGCAACAACTTTTCACGTGCAATTATGTCTAGAAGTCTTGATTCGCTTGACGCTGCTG | 13600
TCAGGCATCGTCTCTCACGTGAAATCTGTGGGGGCAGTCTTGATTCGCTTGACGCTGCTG | 9230
CTTTCCCGATCTTGTCACACAACTTTAGCACATTTGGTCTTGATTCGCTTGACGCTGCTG | 4530
CTTCTGTAAATTTGATAAGTGGGTGGACGCGCCCCGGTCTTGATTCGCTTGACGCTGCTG | 4130
TACCTAACCCATTTGCACGTGTCGGTAATAAGAAAAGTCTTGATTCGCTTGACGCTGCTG | 17400
TGCATTCAAAACATCAACGTGGCCGTCCCATAAGGCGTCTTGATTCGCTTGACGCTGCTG | 15500
CGATCTTGATGTTGTCCCGTGCCAGGTTGTATAATAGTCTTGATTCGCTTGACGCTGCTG | 9180
GGTGCTGTTATTTGTCATGCCATTTGCTCTGGATTAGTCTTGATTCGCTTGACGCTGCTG | 5370
